Experimental data collected from several papers.
Each line is one published result; not all experiments were run side by side.

CC[C@H](C)C[C@H](C)CCCCCCCCC(=O)N[C@H]1C[C@@H](O)[C@@H](NCCN)NC(=O)[C@@H]2[C@@H](O)CCN2C(=O)[C@H]([C@H](O)CCN)NC(=O)[C@H]([C@H](O)[C@@H](O)c2ccc(O)cc2)NC(=O)[C@@H]2C[C@@H](O)CN2C(=O)[C@H]([C@@H](C)O)NC1=O — MIC (Candida parapsilosis; broth dilution; ATCC 22099; 48 h, 37 °C): 4 µg/mL
N=C(N)NCCC[C@H](NC(=O)CN)C(=O)N[C@@H](Cc1c[nH]c2ccccc12)C(=O)N[C@@H](CCCNC(=N)N)C(=O)N[C@@H](Cc1c[nH]c2ccccc12)C(=O)N[C@@H](Cc1c[nH]c2ccccc12)C(=O)N[C@@H](Cc1c[nH]c2ccccc12)C(=O)N[C@@H](CCCNC(=N)N)C(=O)N[C@@H](Cc1c[nH]c2ccccc12)C(=O)N[C@@H](CCCNC(=N)N)C(=O)N[C@@H](Cc1ccccc1)C(N)=O — MIC (Candida albicans; broth microdilution; alveolar fluid isolate, RPMI 1640-MOPS; 48 h, 30 °C): 16 µM
C[C@@H](O)[C@H](NC(=O)[C@H](Cc1ccccc1)NC(=O)[C@H](Cc1c[nH]c2ccccc12)NC(=O)[C@H](Cc1ccccc1)NC(=O)[C@@H](NC(=O)[C@H](Cc1ccccc1)NC(=O)[C@H](CCCNC(=N)N)NC(=O)[C@@H](N)CCCNC(=N)N)[C@@H](C)O)C(=O)N[C@@H](Cc1ccccc1)C(=O)N[C@@H](CCCNC(=N)N)C(=O)N[C@@H](CCCNC(=N)N)C(N)=O — MIC (Candida parapsilosis; CGMCC 2.399; 48 h, 37 °C): 2 µM
CC(C)C[C@H](NC(=O)[C@@H](NC(=O)[C@H](CCCNC(=N)N)NC(=O)[C@H](CCC(N)=O)NC(=O)[C@H](Cc1ccccc1)NC(=O)[C@H](Cc1ccc(O)cc1)NC(=O)[C@H](CC(N)=O)NC(=O)[C@H](Cc1c[nH]c2ccccc12)NC(=O)[C@@H](NC(=O)[C@H](CCCNC(=N)N)NC(=O)[C@H](CCCCN)NC(=O)[C@@H](N)Cc1ccccc1)C(C)C)C(C)C)C(=O)N[C@H](C(=O)N[C@@H](CCCCN)C(=O)N[C@@H](CCCCN)C(=O)N[C@@H](Cc1ccc(O)cc1)C(=O)N[C@@H](C)C(N)=O)C(C)C — MIC (Staphylococcus epidermidis; broth dilution; KCTC 1917): 50 µM
CC(C)[C@H](NC(=O)[C@H](CCCNC(=N)N)NC(=O)[C@H](Cc1c[nH]c2ccccc12)NC(=O)[C@H](CCCNC(=N)N)NC(=O)[C@H](Cc1c[nH]c2ccccc12)NC(=O)[C@H](Cc1c[nH]c2ccccc12)NC(=O)[C@H](Cc1c[nH]c2ccccc12)NC(=O)[C@H](CCCNC(=N)N)NC(=O)[C@H](Cc1c[nH]c2ccccc12)NC(=O)[C@@H](N)CCCNC(=N)N)C(N)=O — MIC (Candida albicans; broth microdilution; SP3931, RPMI 1640-MOPS; 48 h, 30 °C): 8 µM
CC[C@H](C)[C@H](NC(=O)[C@H](C)NC(=O)[C@H](CCCCN)NC(=O)[C@H](CC(C)C)NC(=O)[C@H](C)NC(=O)[C@@H](NC(=O)[C@H](Cc1c[nH]cn1)NC(=O)[C@H](CC(C)C)NC(=O)[C@@H](NC(=O)[C@@H](NC(=O)[C@H](CCCCN)NC(=O)[C@H](C)NC(=O)[C@H](C)NC(=O)[C@H](CO)NC(=O)[C@H](CCCCN)NC(=O)[C@H](Cc1ccccc1)NC(=O)[C@@H](NC(=O)[C@H](CCCCN)NC(=O)[C@H](CC(C)C)NC(=O)[C@H](Cc1ccccc1)NC(=O)[C@H](CO)NC(=O)[C@H](CCCCN)NC(=O)[C@H](Cc1c[nH]c2ccccc12)NC(=O)[C@H](CCCCN)NC(C)=O)[C@@H](C)O)[C@@H](C)O)C(C)C)[C@@H](C)O)C(=O)N[C@@H](CO)C(=O)N[C@@H](CO)C(N)=O — MIC (Klebsiella pneumoniae; geometric mean of 80 strains): 6.22 µg/mL
C[C@@H](O)[C@H](NC(=O)[C@H](Cc1c[nH]c2ccccc12)NC(=O)[C@H](Cc1c[nH]c2ccccc12)NC(=O)[C@H](Cc1c[nH]c2ccccc12)NC(=O)[C@@H](NC(=O)[C@H](Cc1c[nH]c2ccccc12)NC(=O)[C@H](CCCNC(=N)N)NC(=O)[C@@H](N)CCCNC(=N)N)[C@@H](C)O)C(=O)N[C@@H](Cc1c[nH]c2ccccc12)C(=O)N[C@@H](CCCNC(=N)N)C(=O)N[C@@H](CCCNC(=N)N)C(N)=O — MIC (Candida parapsilosis; CGMCC 2.399; 48 h, 37 °C): 16 µM
CC[C@H](C)CCCCC(=O)N[C@@H](CCN)C(=O)N[C@H](C(=O)N[C@@H](CCN)C(=O)N[C@H]1CCNC(=O)[C@H]([C@@H](C)O)NC(=O)[C@H](CCN)NC(=O)[C@H](CCN)NC(=O)[C@H](CC(C)C)NC(=O)[C@@H](CC(C)C)NC(=O)[C@H](CCN)NC1=O)[C@@H](C)O — MIC (Enterobacter cloacae; ATCC 13047): > 64 µg/mL
COc1cc2c(Oc3ccc4[nH]c(C)cc4c3F)ccnc2cc1OCC1(N)CC1 — Cholesterol elevation incidence (paediatric refractory sarcoma patients; 10 mg): 25%
CC[C@H](C)[C@H](NC(=O)[C@H](Cc1ccc(O)cc1)NC(=O)[C@@H](NC(=O)[C@@H]1CCCN1C(=O)[C@H](CCCNC(=N)N)NC(=O)[C@H](CC(N)=O)NC(=O)[C@H](CC(N)=O)NC(=O)CN)C(C)C)C(=O)N1CCC[C@H]1C(=O)N[C@@H](CCC(N)=O)C(=O)N1CCC[C@H]1C(=O)N[C@@H](CCCNC(=N)N)C(=O)N1CCC[C@H]1C(=O)N1CCC[C@H]1C(=O)N[C@@H](Cc1c[nH]cn1)C(=O)N1CCC[C@H]1C(=O)N[C@@H](CCCNC(=N)N)C(=O)N[C@@H](CC(C)C)C(=O)O — MIC (Staphylococcus epidermidis; broth dilution; ATCC 51625; 18 h, 37 °C): 304 µM
CC[C@H](C)[C@H](NC(=O)[C@H](CCCCN)NC(=O)[C@@H](NC(=O)[C@H](Cc1ccc(O)cc1)NC(=O)[C@H](CCCCN)NC(=O)[C@H](CCCCN)NC(=O)CNC(=O)[C@H](CCCCN)NC(=O)[C@@H](NC(=O)[C@H](C)NC(=O)[C@H](CC(C)C)NC(=O)[C@H](Cc1c[nH]c2ccccc12)NC(=O)CNC(=O)[C@@H](NC(=O)[C@H](Cc1ccccc1)NC(=O)[C@H](CCCCN)NC(=O)[C@H](CC(C)C)NC(=O)[C@H](Cc1ccccc1)NC(=O)[C@H](C)NC(=O)CNC(=O)[C@@H](N)CCSC)C(C)C)[C@@H](C)O)C(C)C)C(=O)N[C@@H](C)C(=O)N[C@@H](Cc1c[nH]c2ccccc12)C(=O)N[C@@H](CC(=O)O)C(=O)N[C@@H](Cc1c[nH]cn1)C(=O)N[C@@H](CCCCN)C(=O)NCC(=O)N[C@H](C(=O)N[C@H](C(=O)N[C@@H](CCSC)C(=O)N[C@@H](CCCCN)C(=O)N[C@@H](Cc1c[nH]c2ccccc12)C(=O)N[C@@H](CC(C)C)C(=O)N[C@@H](CC(N)=O)C(=O)N[C@@H](C)C(=O)NCC(=O)N[C@@H](CCC(N)=O)C(=O)N[C@H](C(=O)N[C@@H](Cc1ccccc1)C(=O)N[C@H](C(=O)N[C@@H](Cc1c[nH]c2ccccc12)C(=O)N[C@H](C(=O)N[C@@H](Cc1ccc(O)cc1)C(=O)N[C@@H](CCC(=O)O)C(=O)N[C@@H](CCC(N)=O)C(=O)N[C@H](C(=O)N[C@@H](CCCCN)C(=O)N[C@@H](CCCCN)C(=O)N[C@@H](CC(C)C)C(=O)N[C@@H](Cc1c[nH]c2ccccc12)C(=O)N[C@H](C(=O)O)[C@@H](C)O)[C@@H](C)CC)C(C)C)[C@@H](C)O)[C@@H](C)O)[C@@H](C)CC)[C@@H](C)O — MIC (Streptococcus equi; 37 °C, non-formylated synthetic): 62.5 µg/mL
CC(C)[C@H](NC(=O)[C@H](CCCNC(=N)N)NC(=O)[C@H](Cc1c[nH]c2ccccc12)NC(=O)[C@H](CCCNC(=N)N)NC(=O)[C@H](Cc1c[nH]c2ccccc12)NC(=O)[C@H](Cc1c[nH]c2ccccc12)NC(=O)[C@H](Cc1c[nH]c2ccccc12)NC(=O)[C@H](CCCNC(=N)N)NC(=O)[C@H](Cc1c[nH]c2ccccc12)NC(=O)[C@H](CCCNC(=N)N)NC(=O)CN)C(N)=O — MIC (Candida albicans; CGMCC 2.209; no added salts): 8 µM
C[C@@H](O)[C@H]1C(=O)N2C(C(=O)O)=C(SCCN=CN)C[C@H]12 — MIC (Klebsiella pneumoniae; KPC-2 parental strain K3(3201)): 128 µg/mL
CO[C@H]1/C=C/O[C@@]2(C)Oc3c(C)c(O)c4c(c3C2=O)C2=NC3(CCN(CCn5c([N+](=O)[O-])cnc5C)CC3)NC2=C(NC(=O)/C(C)=C\C=C\[C@H](C)[C@H](O)[C@@H](C)[C@@H](O)[C@@H](C)[C@H](OC(C)=O)[C@@H]1C)C4=O — MIC (Helicobacter pylori; agar dilution; metronidazole-resistant rdxA R16S): ≤ 0.002 µg/mL
C[C@H](NC(=O)[C@H](CCCNC(=N)N)NC(=O)[C@H](Cc1c[nH]c2ccccc12)NC(=O)[C@H](CCCNC(=N)N)NC(=O)[C@H](Cc1c[nH]c2ccccc12)NC(=O)[C@H](Cc1c[nH]c2ccccc12)NC(=O)[C@H](Cc1c[nH]c2ccccc12)NC(=O)[C@H](CCCNC(=N)N)NC(=O)[C@H](Cc1c[nH]c2ccccc12)NC(=O)[C@H](CCCNC(=N)N)NC(=O)CN)C(N)=O — MIC (Candida parapsilosis; broth microdilution; CGMCC 2.399, RPMI 1640-MOPS; 48 h, 30 °C): 16 µM
